Published values gathered from unrelated publications.
Protocols differ between the studies behind these lines. Numbers after ± are the reported error.

Structure (SMILES)	assay	system	setting	half-life
Cn1nnc2c(C(N)=O)ncn2c1=O	–	human patients, plasma	oral, 20 mg/m2, day 5, dose level DL2, median, together with: talazoparib 400 µg/m2	168 min
CCN1CCN(Cc2ccc(Nc3ncc(F)c(-c4cc(F)c5nc6n(c5c4)[C@H](C)CCC6)n3)nc2)CC1	–	human, plasma	50 mg single dose, mean	2280 min
CCOc1c([C@H](C)n2nc(C)c3c(N)ncnc32)cc(Cl)c(F)c1[C@@H]1CNC(=O)C1	–	human patients, Hodgkin lymphoma, plasma	oral, 20 mg, day 15, monotherapy	1010 min
CC#CC(=O)N1CC[C@@H](n2cc(-c3ccc(Oc4c(F)cccc4F)cc3)c3c(N)n[nH]c(=O)c32)C1	–	human patients	oral, 100 to 300 mg, monotherapy	134 min
CC(C)C[C@H](NC(=O)[C@H](CC(C)C)NC(=O)[C@H](Cc1c[nH]c2ccccc12)NC(=O)[C@H](CCC(=O)O)NC(=O)[C@@H](NC(=O)[C@H](Cc1ccccc1)NC(=O)[C@H](CCC(=O)O)NC(=O)[C@H](CCCCNC(=O)COCCOCCNC(=O)COCCOCCNC(=O)CC[C@H](NC(=O)CCCCCCCCCCCCCCCCCCC(=O)O)C(=O)O)NC(=O)[C@H](C)NC(=O)[C@H](CCCCN)NC(=O)[C@H](CCCCN)NC(=O)[C@H](CCC(=O)O)NC(=O)[C@H](CC(=O)O)NC(=O)[C@H](CC(C)C)NC(=O)[C@H](Cc1ccc(O)cc1)NC(=O)[C@H](CCCCN)NC(=O)[C@H](CO)NC(=O)[C@H](Cc1ccc(O)cc1)NC(=O)[C@H](CC(=O)O)NC(=O)[C@H](CO)NC(=O)[C@@H](NC(=O)[C@H](Cc1ccccc1)NC(=O)[C@@H](NC(=O)CNC(=O)[C@H](CCC(N)=O)NC(=O)C(C)(C)NC(=O)[C@@H](N)Cc1c[nH]cn1)[C@@H](C)O)[C@@H](C)O)C(C)C)C(=O)N[C@@H](CCC(=O)O)C(=O)NCC(=O)NCC(=O)N1CCC[C@H]1C(=O)N[C@@H](CO)C(=O)N[C@@H](CO)C(=O)NCC(N)=O	–	human, plasma	subcutaneous, 16 mg once weekly, week 20, geometric mean	11600 min
COc1cc([C@@H]2Oc3cc([C@H]4Oc5cc(O)cc(O)c5C(=O)[C@@H]4O)ccc3O[C@H]2CO)ccc1O	–	OATP1B1/1B3 humanized mice, plasma	oral gavage, 500 mg/kg silymarin	28.2 min
Cc1nc(-c2ccc(OCC(C)C)c(C#N)c2)sc1C(=O)O	–	human, plasma	oral, 20 mg once daily, together with: verinurad 2.5 mg	459 min
CC(C)NC(=O)COc1cccc(-c2nc(Nc3ccc4[nH]ncc4c3)c3ccccc3n2)c1	–	human, male, fed, plasma	oral, 200 mg once daily, day 8, geometric mean, together with: raltegravir	~480 min
CN1CCC(COc2cnc(-c3cccc(Cn4nc(-c5cccc(C#N)c5)ccc4=O)c3)nc2)CC1	–	human	500 mg, alone, geometric mean	1860 min
COc1ccc([C@@H](O)c2cc(-c3ncnc4cc(N5CCOCC5)ccc34)c(F)cc2Cl)nn1	–	human	oral, 200 mg twice daily, multiple doses	376 min
CN[C@@H](C)C(=O)N[C@H]1CN(S(=O)(=O)c2cccc(S(=O)(=O)N3CC[C@H]4CC[C@@H](C(=O)NC(c5ccccc5)c5ccccc5)N4C(=O)[C@@H](NC(=O)[C@H](C)NC)C3)c2)CC[C@H]2CC[C@@H](C(=O)NC(c3ccccc3)c3ccccc3)N2C1=O	LC-MS/MS, noncompartmental	human, plasma	20 mg, cycle 1 day 1	66.6 min
Cc1ccc(C)c(OCCCC(C)(C)C(=O)O)c1	–	human, plasma	oral, 600 mg, before lopinavir/ritonavir, geometric mean	264 min
C#C[C@]1(COP(=O)(O)O)O[C@@H](n2cnc3c(N)nc(F)nc32)C[C@@H]1O	refers to: islatravir triphosphate	human, PBMC	oral, 30 mg single dose	6000 min
CC[C@H](C)CCCCC(=O)N[C@@H](CCN)C(=O)N[C@H](C(=O)N[C@@H](CCN)C(=O)N[C@H]1CCNC(=O)[C@H]([C@@H](C)O)NC(=O)[C@H](CCN)NC(=O)[C@H](CCN)NC(=O)[C@H](CC(C)C)NC(=O)[C@@H](Cc2ccccc2)NC(=O)[C@H](CCN)NC1=O)[C@@H](C)O	–	human, long-term IHD, plasma	intravenous, 0.75 mg/kg, single 1-h infusion,, arithmetic mean	912 min
CCNCc1cc(Nc2ccnc3cc(Cl)ccc23)ccc1O	–	human, both sexes, plasma	oral, dose not given, non-fixed combination	12000 min
COC(=O)N[C@@H](C)CNc1nccc(-c2cn(C(C)C)nc2-c2cc(Cl)cc(NS(C)(=O)=O)c2F)n1	–	human patients, plasma	oral, 450 mg twice daily, day 14, steady state, geometric mean, together with: binimetinib 45 mg once daily	262 min
COc1ncc(-c2nc3c(n2C(C)C)[C@H](c2ccc(Cl)cc2)N(c2cc(Cl)cn(C)c2=O)C3=O)c(OC)n1	–	human, plasma	oral, 200 mg, C1D1, high-dose, median	384 min
C[C@H]1[C@H](OC(=O)CCC(=O)O)O[C@@H]2O[C@@]3(C)CC[C@H]4[C@H](C)CC[C@@H]1[C@@]24OO3	–	human, both sexes, plasma	oral, dose not given, fixed-dose combination	28.8 min
CC(C)c1nc(N(C)S(C)(=O)=O)nc(-c2ccc(F)cc2)c1/C=C/[C@@H](O)C[C@@H](O)CC(=O)O	–	human, plasma	oral, 20 mg, day 2, geometric mean, single agent	879 min
O=C(O)CCC(=O)O.[2H]C([2H])([2H])Oc1cc(C)c2[nH]ccc2c1CN1CC[C@@H](C2CC2)C[C@H]1c1ccc(C(=O)O)cc1	–	human, plasma	100 mg twice daily, day 10, multiple ascending dose, mean	1850 min
NS(=O)(=O)OC[C@@H]1C[C@@H](n2ccc3c(N[C@H]4CCc5ccccc54)ncnc32)C[C@@H]1O	LC-MS/MS, non-compartmental	human, plasma	intravenous, all dose levels, cycle 1 day 8, median, together with: irinotecan/temozolomide	294 min
CN(C)N=Nc1[nH]cnc1C(N)=O	–	human patients, plasma	intravenous, 1000 mg/m^2 over 1 h, cycle 2 day 1, staggered with twice-weekly co-drug	142 min
C=CC(=O)N(C)CCOc1c(N)ncnc1-c1cc(F)cc(NC(=O)c2ccc(C3CC3)cc2F)c1C	–	human, fasted, whole blood	oral, 60 mg single dose, food effect study, median	163 min
CC(=O)c1cc(C(=O)N[C@@H](C)Cn2ccc(-c3ccc(C#N)c(Cl)c3)n2)[nH]n1	–	human, fasted	oral, 300 mg 14C-darolutamide solution, geometric mean	642 min

Structure (SMILES)	assay	system	setting	half-life
Cc1cc(OCCOCCC(F)(F)P(=O)(O)O)ccc1CCc1cnc2c(N)nc3cc(CCC(=O)O)ccc3c2c1	–	human, serum	intratumoral, 400 µg every 2 weeks, cycle 1 day 1	1640 min
CC(C)(Sc1ccncc1-c1ccc(C#N)c2ccccc12)C(=O)O	–	human, plasma	oral, 5 mg once daily, together with: febuxostat 10 mg	1440 min
CC(C)(C)OC[C@@H]1C(=O)NCCN1C(=O)C[C@H](N)Cc1cc(F)c(F)cc1F	–	healthy humans, plasma	oral, 5 mg, alone	1340 ± 379 min
C[C@H](Oc1ccc(Br)cc1-c1ccon1)C(=O)O	LC-MS/MS, non-compartmental	human, plasma	600 mg once daily, day 10, multiple ascending dose, mean	322 min
Cc1noc(C)c1-c1cc(C(O)(c2ccccn2)c2ccccn2)c2nc(C3CC3)[nH]c2c1	–	human patients, plasma	oral, 3 mg, cycle 1 day 8, monotherapy	1010 min
CC(=O)O[C@H]1C(=O)[C@@]2(C)[C@H]([C@H](OC(=O)c3ccccc3)[C@]3(O)C[C@H](OC(=O)[C@H](O)[C@@H](NC(=O)c4ccccc4)c4ccccc4)C(C)=C1C3(C)C)[C@]1(OC(C)=O)CO[C@@H]1C[C@@H]2O	–	human, plasma	intravenous infusion, 80 mg/m^2, day 5, with oral co-drug daily	498 min
CC(C)n1c(Nc2cccnc2)nc2cnc(Nc3ccc(N4CCN(C)CC4)cc3)nc21	–	human, male, plasma	oral, 100 mg, day 1, single dose alone	2390 min
O=C(COc1ccc(Cl)cc1)NC12CC(c3nnc([C@H]4C[C@@H](OC(F)(F)F)C4)o3)(C1)C2	–	healthy human volunteers fasted, plasma	oral, 400 mg single dose, arithmetic mean	2240 min
CC1(COc2ccc3c(c2)ncn3-c2ccc3cccc(N4CCC(N)CC4)c3n2)COC1	–	human patients, recurrent/progressive HGG or DIPG, serum	oral, 220 mg/m^2, day 1, median	474 min
COc1cc([C@@H]2[C@H]3CO[C@@]4(O)C(=O)[C@@H]2C=C([C@H]2Oc5cc(O)cc(O)c5C(=O)[C@@H]2O)[C@@H]34)ccc1O	–	OATP1B1/1B3 humanized mice, plasma	oral gavage, 500 mg/kg silymarin	264 min
COc1cc(C(=O)NC2CCN(C)CC2)c(F)cc1Nc1ncc(C(F)(F)F)c(Oc2cccc3c2C(=O)N(C)C3)n1	–	human, Japanese, plasma	oral, 200 mg single dose, geometric mean	1290 min
N#Cc1cc(NC(=O)[C@H]2c3ccccc3C(=O)N(CC(F)(F)F)[C@@H]2c2cccnc2)ccc1F	–	human, plasma	oral, 300 mg, median	1210 min
N#CCNC(=O)c1ccc(-c2ccnc(Nc3ccc(N4CCOCC4=O)cc3)n2)cc1	–	healthy human volunteers, plasma	200 mg momelotinib, day 1, fasted, momelotinib alone	459 min
Cc1cc(C)c(CNC(=O)c2cc(Cl)c3c(c2C)O[C@@](C)([C@H]2CC[C@H](N(C)C)CC2)O3)c(=O)[nH]1	–	healthy male human, plasma	oral, 25 mg, alone, before fluconazole	1300 min
CCCCOc1nc(N)c2c(n1)N(Cc1cccc(CN3CCCC3)c1)CC(=O)N2	–	human	oral, 2 mg, mean	1080 min
NCCCS(=O)(=O)O	–	human, plasma	oral, 256.5 mg once daily, day 1, capsule, fasted	702 min
CO[C@@H]1[C@H](OC(=O)N2CC(CCN3CCOCC3)C2)CC[C@]2(CO2)[C@H]1[C@@]1(C)O[C@@H]1CC=C(C)C	–	humans, plasma	subcutaneous, 1.8 mg twice weekly, fifth dose	51 ± 11.4 min
Cc1ccc([C@@H]2O[C@H](CO)[C@@H](O)[C@H](O)[C@H]2O)cc1Cc1ccc(-c2ccc(F)cc2)s1	–	human, maintenance hemodialysis patients	oral, 300 mg once daily, steady state, mean	684 min
COc1cc(Nc2ncc3c(n2)-c2ccc(Cl)cc2C(c2c(F)cccc2OC)=NC3)ccc1C(=O)O	–	human patients, plasma	oral, 40 mg twice daily, day 7, together with: pembrolizumab	463 min
CC(C)[C@H](N)C(=O)NCCCS(=O)(=O)O	–	human, plasma	oral, 256.5 mg once daily, day 1, fasted, capsule	56 min
CO[C@H]1C[C@@H]2CC[C@@H](C)[C@@](O)(O2)C(=O)C(=O)N2CCCC[C@H]2C(=O)O[C@H]([C@H](C)C[C@@H]2CC[C@@H](OC(=O)NCCOCCOCCOCCOCCOCCOCCOCCOCCC(=O)N3CCc4cc(Cn5nc(-c6ccc7oc(N)nc7c6)c6c(N)ncnc65)ccc4C3)[C@H](OC)C2)C[C@@H](O)[C@H](C)/C=C(\C)[C@@H](O)[C@@H](OC)C(=O)[C@H](C)C[C@H](C)/C=C/C=C/C=C/1C	–	human, plasma	intravenous, 12 mg, cycle 1 day 1, arithmetic mean	324 min
C#C[C@]1(CO)O[C@@H](n2cnc3c(N)nc(F)nc32)C[C@@H]1O	–	human, plasma	oral, 30 mg single dose, fed	3810 min
CC(C)=CCC/C(C)=C/CC/C(C)=C/CC[C@@](C)(O)CCC1=C(C)C(=O)C(C)=C(C)C1=O	–	healthy human, plasma	oral, 400 mg, single dose, alone	612 min
C=CC(=O)NC1CCN(c2ncc3ncnc(Nc4ccc(Oc5ccc6c(c5)ncn6C)c(C)c4)c3n2)CC1	–	human, male, plasma	oral, 240 mg single dose, fasted, geometric mean	1850 min

For quick reference, copied from above:
Structure (SMILES)	assay	system	setting	half-life
CC(=O)c1cc(C(=O)N[C@@H](C)Cn2ccc(-c3ccc(C#N)c(Cl)c3)n2)[nH]n1	–	human, fasted	oral, 300 mg 14C-darolutamide solution, geometric mean	642 min
CC(C)(Sc1ccncc1-c1ccc(C#N)c2ccccc12)C(=O)O	–	human, plasma	oral, 5 mg once daily, together with: febuxostat 10 mg	1440 min
N#CCNC(=O)c1ccc(-c2ccnc(Nc3ccc(N4CCOCC4=O)cc3)n2)cc1	–	healthy human volunteers, plasma	200 mg momelotinib, day 1, fasted, momelotinib alone	459 min
